Results from different studies.
Each numbered part is a random draw from the data of one study; scales do not carry over between parts. Changes are numbered by the printed parent chain.

Study 1
Target: Sal-like protein 4, full length isoform B (SALL4, Homo sapiens, UniProt Q9UJQ4-2, residues 1-616)
Technique: universal PBM
Form: double-stranded DNA, one strand shown
Sample: in vitro
Tested at: not given
Notes: 8-mer, flanks averaged, mean of replicates
Direction: higher = stronger binding
Strand | E-score
AGGGGTAT | -0.0997
GAGTGACC | -0.255
CCTCAAGC | -0.259
GATCTGAA | -0.105
GACTGCCA | -0.0475
AATTCTGC | 0.0277
GATTAATC | 0.209
ACGGTACA | -0.0599
GGAGGCCC | -0.348
TCCAAGAA | 0.0111
ATAGCTGG | -0.0789
ACAGCAGC | -0.157
AACTATTA | 0.297
TGAGGTAA | 0.0414
AAAAATTA | 0.407
CGTGCCAG | -0.225
GGCTACGA | -0.102
AATTGACG | 0.145
GTCCGCGA | -0.166
CTTACAAG | 0.0296

Study 2
Target: RNA binding protein fox-1 homolog 2, RRM domain, GST-SBP tag (RBFOX2, Homo sapiens, UniProt O43251-10, residues 100-194)
Technique: RNA Bind-n-Seq
Form: RNA
Sample: in vitro
Tested at: 365 nM
Notes: natural RNA segment, single round, ends assumed
Baseline: no-protein control
Direction: higher = stronger binding
Constant ends, left off below: GGGAGUUCUACAGUCCGACGAUC … UGGAAUUCUCGGGUGCCAA
Target sequence (chain): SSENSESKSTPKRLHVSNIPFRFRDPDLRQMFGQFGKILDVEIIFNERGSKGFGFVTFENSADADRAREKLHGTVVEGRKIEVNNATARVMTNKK
Strand | RBNS enrichment (R)
AAGUUGGGGCUGAAGUACCUAAGUGUGAAUGUCUCUCCCGUUAAACUGAGUGUAGAAAUCUGAAUUUUUAAAAGAGCUGUAACUAGUUGUAAGUGCUUAGGAAGAAACUU | 0.809
CAUCUUUAGAUGCAUUUCAGAGCCAAUGAUGAUAUUUGCUUUAGAUAAUUAUUAUAUUAUUAUAAAUAUAGCCAUAUUAUUUUGAAUUCAAAUAAAUUUCUAUACUGGUA | 1.08
AUCCUGACAUUGUAUGCUACGAGAACUCUUCUGAUGAUGGAAUUUCGAUUAAAGUGCACUGAAAGAUGCUUCUGUGUUUGUCUUCCUCAUGUUCUGGGGCUGAAGGUGGG | 1.14
CCAUAGAGACCAGGAGGGAGAGCCUCUGUUUUGUAAACUAAGGAUAACCGAGUUUGCUAAAUUGAGAGGGGCUAUUGGGCCCUAGAGGACACUAGGAGACUGGUUAGGAC | 0.4
ACAGGGAUUAGGGAAAUGGAGCUCUGGCUUUGAAGUUAUUUGUGAGUUUAGCAACCUUCCAGUUACCUGCAGAGUUCUGGGUGCACAGCCACCCCUCAUAAGAGCCCUGU | 0.896
GCCUGCUUCUUCAUCACCUUAAUUUCUGCCAUAACCUGGACUUCGCUGACUGUGUGACUGCCCUGCUCCCUCUGUUCAUCUUAGCCCCAGCCCUCGUCCUCUUUCUGUGA | 2.46
ACACUUGUUAGUCUCUGUGAGCCCAGGCCUGAGCUGGGGGAAAGUAGGAAGAUUUGGGCAUAUAUGCUCUCUAUUGGUUCCUUCCAUAUUAAACAUACCUGUGUUUUGAG | 0.442
UUUUUUUUCUUUUCUGCAAACCUUUGCUUUCCCAUAAACUGUAGCUUCCCCGUGACUAGGAAUUUAGCCAUAAGACUAGUUCAAGGCUAACCACCAAGCUUCCCUUUGAC | 0.43
CCUCUGAAAGAGAAGGAGUGCAGGAGAGUAAGUCUCUCAAGGACGUUCAACAAAGGACCAGCAGCAUCUUAUCAGGCGAUCCUCAGAGGCUCCAAGGAGCAUUGGAGAGA | 0.518
GAGUACUCAGGAACUUGACUGUAGUAGAAUACUGCUAGUUUCUUAAUUUUAAUUCACAUCACCUGAAAAGUAAAACAACAGGCUUUGCCAAGUGGAUGCUUUUCAGUAAC | 0.404
GCCCUAGUCUCCUCCAUUGACAGUCAUCCAUCUCUGCCUAAGGGACAAAGAAAUCCUUCUACCUGAGAAGGCAGAAAUAGACCUGCCCGUGGGAGGAGCAUCAAGGGGCC | 0.303
AUACCCACCCCAGGGUAACGGGGCUGGCCUGGCAUUAGUCAUUAUUUAGUUUCCAGGCCAACCAUCCAGAUAGAGAUUCCCUCUUUCCUUUGAGCAGUGCUCUCAAGAGC | 0.248

Study 3
Target: ABI1, truncated, D143A, DHFR fusion (Arabidopsis thaliana)
Technique: DHFR PCA, deep sequencing
Sample: yeast
Notes: methotrexate growth selection, single substitutions
With: (+)-ABA 0.39 µM
Baseline: wild-type fitted maximum
Direction: higher = stronger binding
Starting sequence: PYL1, truncated, DHFR fusion (Arabidopsis thaliana); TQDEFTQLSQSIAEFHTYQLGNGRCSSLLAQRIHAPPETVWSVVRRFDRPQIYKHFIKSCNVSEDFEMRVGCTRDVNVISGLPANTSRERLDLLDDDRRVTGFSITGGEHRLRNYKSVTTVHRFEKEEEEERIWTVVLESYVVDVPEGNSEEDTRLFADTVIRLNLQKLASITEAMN
Change | relative binding score [%]
K58E | 7.89
Y53R | -4.32
M68V | 22.8
R123S | 61.3
P50M | -1.92
G108E | -14.1
I33P | -1.86
R155V | 19.8
R98E | -0.778
R24I | 4.29
E127D | 53.9
R99M | 94.1
L166V | 3.6
A170E | 2.43
S26I | -3.61

Study 4
Target: Interferon regulatory factor 7, full length, phosphomimetic (IRF7, Homo sapiens, UniProt Q92985, residues 1-503, S471D/S472D/S475D/S476D/S477D/S483D/S484D/S487D)
Sequence of UniProt Q92985 (whole entry, unmodified, looked up): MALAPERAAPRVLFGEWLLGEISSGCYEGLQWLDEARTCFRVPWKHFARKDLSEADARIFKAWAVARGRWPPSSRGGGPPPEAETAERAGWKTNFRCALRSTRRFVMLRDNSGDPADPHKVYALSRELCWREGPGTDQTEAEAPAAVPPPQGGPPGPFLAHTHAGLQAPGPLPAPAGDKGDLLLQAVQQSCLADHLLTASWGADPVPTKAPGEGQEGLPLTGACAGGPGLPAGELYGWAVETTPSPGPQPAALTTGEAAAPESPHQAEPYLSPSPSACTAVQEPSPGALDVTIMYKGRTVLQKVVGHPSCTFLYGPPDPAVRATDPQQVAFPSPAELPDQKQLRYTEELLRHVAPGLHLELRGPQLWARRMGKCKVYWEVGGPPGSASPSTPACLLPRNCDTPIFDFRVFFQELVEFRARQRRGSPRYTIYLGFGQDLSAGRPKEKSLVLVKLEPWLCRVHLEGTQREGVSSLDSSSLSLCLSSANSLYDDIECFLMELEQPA
Technique: protein-binding microarray
Form: double-stranded DNA, one strand shown
Sample: in vitro
Tested at: 2200 nM top
Notes: 60-bp whole probe
With: salmon DNA 0.4 mg/ml
Baseline: random background probes
Direction: higher = stronger binding
Constant ends, left off below: GCCTAGCAC … GTCTTGATTCGCTTGACGCTGCTG
Strand | fitted relative affinity
GACTATTTCAGTATCGAGACGTGCTAG | 1.05 z-score
TTAGGACCGCTACTGCTTTAGTGCTAG | -0.0651 z-score
TTAGATTTCAGTATCGCTTAGTGCTAG | 1.14 z-score
GACGGTATCGGGTTTCGGGGCGTGCTA | 1.03 z-score
GACGATTTCGGGACTGTAGACGTGCTA | 1.31 z-score
TTAGGTTGCCTTTCCCTTTAGTGCTAG | 1.92 z-score
GTAGGTTCCCTTTTCCTTTAGTGCTAG | 3.41 z-score
TCAAGAAAAAGAAAAAAAACTGTGCTA | -2.18 z-score
CTAGGTATCGGTTTCGGTTAGTGCTAG | 7.28 z-score
GACTGTTTCGACTTTCGGGACGTGCTA | 7.11 z-score
TTAGGGTTCGGTATCGGTTAGTGCTAG | 1.1 z-score
TTAGATATCGGGTTTCAATTAGTGCTA | 0.708 z-score
GACGATATCGGGTTTCAAGACGTGCTA | 0.363 z-score
TCACCCCTCAGATCTGCCACTGTGCTA | 0.657 z-score
TTTGATATCGGGACTGGATTAGTGCTA | 0.0423 z-score
TTAGGTTTCGGGGATCGGTTAGTGCTA | 2.53 z-score
GACGGACTCGGTCTCGGGACGTGCTAG | -0.473 z-score
TCAAATTTATAAATAAAACTGTGCTAG | -1 z-score
GACGATCTCAGACTAGAGACGTGCTAG | -0.256 z-score
TCAAGGCTGTGTTTTCACACTGTGCTA | 0.252 z-score
GACGAACTGGGGTTTCGGGACGTGCTA | 1.11 z-score

Study 5
Target: CCND3, cyclin fold, Cln2 fusion (human)
Technique: yeast growth competition, sequencing
Sample: yeast
Notes: weak parent motif
Baseline: not given
Direction: higher = stronger binding
Starting sequence: PKN2 docking peptide (human); VSAVQKLDFSDTM; partner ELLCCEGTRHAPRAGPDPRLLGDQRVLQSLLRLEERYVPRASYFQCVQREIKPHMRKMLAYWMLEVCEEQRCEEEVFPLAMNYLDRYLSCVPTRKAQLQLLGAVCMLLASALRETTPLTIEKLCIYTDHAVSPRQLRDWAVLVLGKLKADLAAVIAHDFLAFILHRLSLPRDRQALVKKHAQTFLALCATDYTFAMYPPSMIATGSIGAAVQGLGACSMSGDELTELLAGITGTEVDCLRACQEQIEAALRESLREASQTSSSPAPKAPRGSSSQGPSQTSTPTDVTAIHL
Change | normalised enrichment score
VSAVQKLDFSDSM [T12S] | 0.14
VSAVQKLDFSDTE [M13E] | 0.0855
VSAVQKLDFCDTM [S10C] | 0.106
VSAVQKLDFSDMM [T12M] | 0.0533
VSARQKLDFSDTM [V4R] | 0.126
VSAVQKVDFSDTM [L7V] | 0.0528
VSAVQKLDFSDVM [T12V] | 0.0652
VSAVQRLDFSDTM [K6R] | 0.111
VSAVQKLDFSDPM [T12P] | 0.221
VSAVQKLDWSDTM [F9W] | 0.0882
VSANQKLDFSDTM [V4N] | 0.064
VSAVQKLDFHDTM [S10H] | 0.0917
VSAVQGLDFSDTM [K6G] | 0.151
VSAVQFLDFSDTM [K6F] | 0.122
VSAVQKLDFSNTM [D11N] | 0.164
VSRVQKLDFSDTM [A3R] | 0.0927
VSAVQKLDFYDTM [S10Y] | 0.156
VSAVQKNDFSDTM [L7N] | 0.174
ESAVQKLDFSDTM [V1E] | 0.0565
VSAVQKLDFSITM [D11I] | 0.0361

Further values, each from its own experiment
Molecule | target | test | test system | setting | how to read | measurement | result
PhoQ, residues 284 288 289 292 302 303 QWQEDG | PhoP, residues 12 14 15 18 19 LHSVQ (Escherichia coli, UniProt P23836) | Sort-seq, refers to: YFP reporter | E. coli | PhoQ-PhoP variant library, with: 10 µM Mg2+ | baseline: high Mg2+ state, higher = stronger signaling | fold induction | 2.11
